Published values pooled from the literature.
Target: Albumin (ALB, Homo sapiens, UniProt P02768)

Structure (SMILES) | assay | system | setting | quantity | value
Cc1c(C)c(C)[c-](C)c1C.[C-]#[O+].[C-]#[O+].[C-]#[O+].[Cl-].[Cl-].[Cl-].[Ir+3].[Re+].c1cnc(-c2ncccn2)nc1 | tryptophan fluorescence quenching |  |  | Stern-Volmer constant | 16000 M⁻¹
C#CC(=O)Nc1ccc(-c2c([Si](C)(C)C)c3ccccc3c3ccc4ccccc4[n+]23)cc1 | LC-MS |  | 16 h, pH 7.4, 25 °C, covalent modification of Cys34 | conversion | 75%
Cc1ccc(C(C)C)cc1.[C-]#[O+].[C-]#[O+].[C-]#[O+].[Cl-].[Cl-].[Cl-].[Re+].[Ru+2].c1cnc(-c2ncccn2)nc1 | tryptophan fluorescence quenching |  |  | quenching rate constant | 5.5e+12 M⁻¹ s⁻¹
Cc1cnc2c(c1)NC(=O)c1cccnc1N2C1CC1 | ITC |  | concentration not given | binding entropy | 38.3 J/(K·mol)
CCCCCC(C)NCC(=O)O (stereo not shown) | UV-vis absorption titration |  | pH 7.4, room temperature | apparent binding constant | 1.02 mM⁻¹
O=C([O-])CN1CCN(CC(=O)[O-])CCN(CC(=O)c2ccc(-c3ccc(OCC(=O)O)cc3)cc2)CCN(CC(=O)[O-])CC1.[Gd+3] |  | HEPES buffer | 25 °C, 60 MHz | r1 relaxivity | 5.38 mM⁻¹ s⁻¹
O=C1Nc2cccnc2N(C2CC2)c2ncccc21 | ITC |  | concentration not given | binding entropy | 25.5 J/(K·mol)
C#CC(=O)Nc1ccc(-c2c([Si](C)(C)C)c3ccccc3c3cc(-c4ccccc4)c4ccccc4[n+]23)cc1 | LC-MS |  | 16 h, pH 7.4, 25 °C, covalent modification of Cys34 | conversion | 60%
C1=CCCC=CCC1.F[P-](F)(F)(F)(F)F.[Pt+][c]1ccccc1P(=Nc1ccccc1)(c1ccccc1)c1ccccc1 | fluorescence quenching |  | pH 7.4, added: HSA 10 µM | Stern-Volmer constant | 3.67e+06 M^–1
O=S([O-])c1ccccc1N=Cc1ccccc1[O-].[Cu+2].c1c[nH]cn1 | fluorescence quenching |  |  | binding constant | 35400 M⁻¹
Cc1ccc(C(C)C)cc1.O=C(N=P12CN3CN(CN(C3)C1)C2)c1[c-]cccc1.[Cl-].[Ru+2] | fluorescence quenching |  | pH 7.4 | Stern-Volmer constant | 38500 M⁻¹
O=C(/C=C/c1ccc(O)c(O)c1)NCCCCCCCC[P+](c1ccccc1)(c1ccccc1)c1ccccc1 | van't Hoff analysis |  | concentration not given | ΔH of binding | 4.35 kJ/mol
CCCNCC(=O)O | circular dichroism |  | 0.12 mM | α-helix content | 41.3%
CC1(C)C(=CC=C2C[N+](C)(C)CC(C=CC3=[N+](CCCCCC(=O)O)c4ccccc4C3(C)C)=C2Cl)N(CCCCCC(=O)O)c2ccccc21 | HPLC |  | 72 h, 37 °C, 2 equiv albumin | covalent adduct formation | ~30%
N=C(N)c1cccc(C[C@H](NS(=O)(=O)c2cccc(-c3cc(CO)ccc3Cl)c2)C(=O)N2CCC(CCNC(=O)NC3CCCCC3)CC2)c1 | binding at Sudlow site I, fluorescence |  | 10 µM, pH 7.4, added: warfarin 1 µM, HSA 3.5 µM | warfarin displacement | ~10%
CCNC(=O)[O][Pt]([Cl])([Cl])[O]C(=O)CCC(=O)O.N.N | Trp214 fluorescence quenching |  |  | binding constant (Ka) | 2600 M⁻¹

Excerpt of the above:
Structure (SMILES) | assay | system | setting | quantity | value
N=C(N)c1cccc(C[C@H](NS(=O)(=O)c2cccc(-c3cc(CO)ccc3Cl)c2)C(=O)N2CCC(CCNC(=O)NC3CCCCC3)CC2)c1 | binding at Sudlow site I, fluorescence |  | 10 µM, pH 7.4, added: warfarin 1 µM, HSA 3.5 µM | warfarin displacement | ~10%
CCNC(=O)[O][Pt]([Cl])([Cl])[O]C(=O)CCC(=O)O.N.N | Trp214 fluorescence quenching |  |  | binding constant (Ka) | 2600 M⁻¹
